Measured values gathered from unrelated publications.
Cell line: NCI-H460

CCCCN1CCN(c2ccc3[nH]c(-c4ccc5[nH]c(-c6cc(OC)c(OC)c(OC)c6)nc5c4)nc3c2)CC1  growth percent (SRB; 10 µM, 48 h): 83%
O=C(Nc1nnc2n3c(Cc4ccccc4)n[nH]c3nc(-c3ccc(Cl)cc3)c1-2)c1ccccc1  cell growth (SRB; 10 µM, NCI60 single-dose screen; reference: untreated): 108%
Cc1n(Cc2ccc3ccccc3c2)c2ccccc2[n+]1Cc1ccc2ccccc2c1.[Br-]  TGI (NCI60 five-dose screen): 3.02 µM
O=C(Nc1nnc2[nH]c(=S)[nH]c(-c3ccc(Cl)cc3)c1-2)c1ccccc1  cell growth (SRB; 10 µM, NCI60 single-dose screen; reference: untreated): 99.2%
Cc1nc(NC(=O)N2CCC[C@H]2C(N)=O)sc1-c1ccnc(C(C)(C)C(F)(F)F)c1  IC50 (growth rate inhibition, CellTiter-Glo; 120 h): 10 µM
CCCCCCCCCCCCCCCCCCOc1ccc(CC(=O)OCC[N+](C)(C)C)cc1  growth inhibition (SRB; 10 µM): < 0%
CCCCN1CCN(c2ccc3[nH]c(-c4ccc5[nH]c(-c6ccc(C(F)(F)F)cc6)nc5c4)nc3c2)CC1  growth percent (SRB; 10 µM, 48 h): -79.9%
Cn1cncc1C1=CN(c2ncnc3[nH]cnc23)CCS1  GI50 (lung cancer): 11.7 µM
CCCC(CCC)C(=O)OCc1cn(-c2c3ccccc3nc3ccccc23)nn1  growth percentage (NCI60 single-dose screen; 10 µM): 105%
CCCc1n(Cc2ccc3ccccc3c2)c2ccccc2[n+]1Cc1ccc2ccccc2c1.[Br-]  TGI (NCI60 five-dose screen): 1.36 µM
CCCN1CCN(c2ccc3[nH]c(-c4ccc5[nH]c(-c6ccc(OCC)c(OCC)c6)nc5c4)nc3c2)CC1  growth percent (SRB; 10 µM, 48 h): -80.3%
NNc1nc(-c2ccc(Cl)cc2)c2c(NC(=O)c3ccccc3)nnc-2[nH]1  cell growth (SRB; 10 µM, NCI60 single-dose screen; reference: untreated): 100%
CN(C)C(=N)N=C(N)N  PD-L1 positive cells (flow cytometry, measured: surface PD-L1; 5000 µM, 24 h): 15.7%
Cc1n[nH]c2nc(-c3ccc(Cl)cc3)c3c(NC(=O)c4ccccc4)nnc-3n12  cell growth (SRB; 10 µM, NCI60 single-dose screen; reference: untreated): 110%
Cc1cc(C)n(C(=S)[S][Au][PH](CCCCCC[PH]([Au][S]C(=S)n2nc(C)cc2C)(c2ccccc2)c2ccccc2)(c2ccccc2)c2ccccc2)n1  log10 TGI (cell growth, NCI-60 screen; non-small cell lung cancer): > -4
CCCN1CCN(c2ccc3[nH]c(-c4ccc5[nH]c(-c6cc(OC)c(OC)c(OC)c6)nc5c4)nc3c2)CC1  growth percent (SRB; 10 µM, 48 h): 93.2%
COc1cnc2cccc(N3CCc4c(cc(Cn5ccnc5C)cc4-c4cn(C)nc4C(F)(F)F)C3=O)c2c1  EC50 (cell growth, inhibitor; 120 h): > 30 µM
CCOC(=O)CSc1nc(-c2ccc(Cl)cc2)c2c(NC(=O)c3ccccc3)nnc-2[nH]1  cell growth (SRB; 10 µM, NCI60 single-dose screen; reference: untreated): 97.5%
O=C1NC(c2ccccc2)(c2ccccc2)C(=O)N1Cc1cn(-c2cc3ccccc3oc2=O)nn1  growth percentage (NCI60 single-dose screen; 10 µM): 91.4%
CCCN1CCN(c2ccc3nc(-c4ccc5nc(-c6cc(OC)ccc6OC)[nH]c5c4)[nH]c3c2)CC1  growth percent (SRB; 10 µM, 48 h): 100%
CCN(CC)c1ccc(C=NNC(=O)CSc2nc3ccccc3c(=O)n2Cc2ccc(S(N)(=O)=O)cc2)c(O)c1  TGI (NCI five-dose screen): > 100 µM
O=C1NC(c2ccccc2)(c2ccccc2)C(=O)N1Cc1cn(-c2c3ccccc3nc3ccccc23)nn1  growth percentage (NCI60 single-dose screen; 10 µM): 74.2%
COc1ccc(OC)c(-c2nc3ccc(-c4nc5ccc(N6CCN(C)CC6)cc5[nH]4)cc3[nH]2)c1  growth percent (SRB; 10 µM, 48 h): 106%
CCn1cc(-c2cc(Cn3ccnc3)cc3c2CCN([C@H](c2cc(OC)ccn2)C2CC2)C3=O)c(C(F)(F)F)n1  EC50 (cell growth, inhibitor; 120 h): > 30 µM

Some of these lines once more:
CCCN1CCN(c2ccc3[nH]c(-c4ccc5[nH]c(-c6cc(OC)c(OC)c(OC)c6)nc5c4)nc3c2)CC1  growth percent (SRB; 10 µM, 48 h): 93.2%
CN(C)C(=N)N=C(N)N  PD-L1 positive cells (flow cytometry, measured: surface PD-L1; 5000 µM, 24 h): 15.7%
